Measurements from different studies.
Each line is one published result; not all experiments were run side by side. ± gives the spread as reported.

Structure (SMILES)	assay	system	setting	scale	measurement	result
CCCC[C@H](NC(=O)[C@@H](NC(=O)[C@H](CC(=O)O)NC(=O)[C@H](CCC(N)=O)NC(=O)[C@H](CC(C)C)NC(=O)[C@H](CC(C)C)NC(=O)[C@H](CCCN)NC(=O)[C@H](CCCNC(=N)N)NC(=O)[C@H](C)NC(=O)[C@H](CO)NC(=O)[C@H](CC(C)C)NC(=O)[C@H](CCC(N)=O)NC(=O)[C@H](CC)NC(=O)[C@H](CC(C)C)NC(=O)[C@@H](NC(=O)[C@H](CCCN)NC(=O)[C@H](CCCNC(=N)N)NC(=O)[C@H](Cc1ccc(O)cc1)NC(=O)[C@H](CO)NC(=O)[C@H](CCC(N)=O)NC(=O)[C@@H](NC(=O)[C@H](Cc1ccccc1)NC(=O)[C@@H](NC(=O)[C@H](C)NC(=O)[C@H](CC(=O)O)NC(=O)[C@@H](C)NC(=O)CCc1ccc(O)cc1)[C@@H](C)CC)[C@@H](C)O)C(C)C)[C@@H](C)CC)C(=O)N[C@@H](CC(=O)O)C(=O)N[C@H](CCCNC(=N)N)C(=O)NC	GH release	male rat, serum	subcutaneous, dose not given, 15 min	baseline: GHRH(1-29)NH2	relative potency	58.8
CC[C@@H](C)[C@H]1NC(=O)[C@@H]([C@H](C)O)NC(=O)[C@@H](Cc2c[nH]cn2)NC(=O)CNC(=O)[C@@H](CCCNC(=N)N)NC(=O)CNC(=O)[C@@H](Cc2ccccc2)NC1=O	VEGF-induced retinal vascular permeability	rat	eye drop, single dose		minimal effective dose	0.005 % eye drop
CC(CCC(=O)NCc1ccc(C(=O)NO)cc1)C1CCC2C3C(O)CC4CC(O)CCC4(C)C3CCC12C (stereo not shown)	CK19 histology	PCK rats, liver	dose not given	baseline: untreated	hepatic cystic area	decreased
Cc1cc(O)c(C=O)c2c1C(=O)Oc1c(CO)c(O)c3c(c1O2)C(O)OC3=O (stereo not shown)		rat, male, streptozotocin-induced diabetes, testis	oral, 10 mg/kg, 9 weeks		relative organ weight	0.93 ± 0.01 g
[2H]C([2H])([2H])C(c1cc2nnc(-c3cc(F)ccc3F)n2nc1OCc1ncnn1C)(C([2H])([2H])[2H])C([2H])([2H])[2H]		amygdala-kindled Wistar rats, amygdala	oral, 1 mg/kg, 2 h before stimulation	baseline: baseline	afterdischarge duration change	-26%
N[C@@H](CC(=O)O)C(=O)N1CCC[C@H]1C(=O)NCC(=O)NCC(=O)O	diketopiperazine formation, Arrhenius plot, ESI-MS	1-propanol	70, 80, 90 °C, 0.5% acetic acid		activation energy	17 ± 0.239 kcal/mol
CCCC[C@H](NC(=O)[C@@H](NC(=O)[C@H](CC(=O)O)NC(=O)[C@H](CCC(N)=O)NC(=O)[C@H](CC(C)C)NC(=O)[C@H](CC(C)C)NC(=O)[C@H](CCCN)NC(=O)[C@H](CCCNC(=N)N)NC(=O)[C@H](C)NC(=O)[C@H](CO)NC(=O)[C@H](CC(C)C)NC(=O)[C@H](CCC(N)=O)NC(=O)[C@H](CC)NC(=O)[C@H](CC(C)C)NC(=O)[C@@H](NC(=O)[C@H](CCCN)NC(=O)[C@H](CCCNC(=N)N)NC(=O)[C@H](Cc1ccc(O)cc1)NC(=O)[C@H](CO)NC(=O)[C@H](CCC(N)=O)NC(=O)[C@@H](NC(=O)[C@H](Cc1ccccc1)NC(=O)[C@@H](NC(=O)[C@H](C)NC(=O)[C@H](CC(=O)O)NC(=O)[C@H](C)NC(=O)[C@H](Cc1ccc(O)cc1)NC)[C@@H](C)CC)[C@@H](C)O)C(C)C)[C@@H](C)CC)C(=O)N[C@@H](CC(=O)O)C(=O)N[C@@H](CCCNC(=N)N)C(=O)NC	GH release	rat, male, serum	subcutaneous, dose not given, 15 and 30 min	baseline: reference GHRH agonist JI-38	relative potency	1 to 4 fold
O=C1/C(=C/c2ccccc2)Oc2cc(O)c(-c3ccc(O)c(O)c3)c(O)c21	ABTS scavenging, absorbance				EC50	1060 µM
CCCCSc1nnc(-c2cc([N+](=O)[O-])ccc2Cl)o1	nitric oxide scavenging				IC50	39.2 ± 2.2 µM
CCCC[C@H](NC(=O)[C@@H](NC(=O)[C@H](CC(=O)O)NC(=O)[C@H](CCC(N)=O)NC(=O)[C@H](CC(C)C)NC(=O)[C@H](CC(C)C)NC(=O)[C@H](CCCN)NC(=O)[C@H](CCCNC(=N)N)NC(=O)[C@H](C)NC(=O)[C@H](CO)NC(=O)[C@H](CC(C)C)NC(=O)[C@H](CCC(N)=O)NC(=O)[C@H](CC)NC(=O)[C@H](CC(C)C)NC(=O)[C@@H](NC(=O)[C@H](CCCN)NC(=O)[C@H](CCCNC(=N)N)NC(=O)[C@H](Cc1ccc(O)cc1)NC(=O)[C@H](CO)NC(=O)[C@H](CCC(N)=O)NC(=O)[C@@H](NC(=O)[C@H](Cc1ccccc1)NC(=O)[C@@H](NC(=O)[C@H](C)NC(=O)[C@H](CC(=O)O)NC(=O)[C@H](C)NC(=O)CCc1ccc(O)cc1)[C@@H](C)CC)[C@@H](C)O)C(C)C)[C@@H](C)CC)C(=O)N[C@@H](CC(=O)O)C(=O)N[C@@H](CCCNC(=N)N)C(=O)NCCCCC(N)=O	GH release	male rat, serum	subcutaneous, dose not given, 30 min	baseline: GHRH(1-29)NH2	relative potency	126
